Assay results from different studies.
Numbered parts are unrelated; each lists some results of a single study.

Sample 1
Target: Interferon regulatory factor 3, full length, phosphomimetic (IRF3, Homo sapiens, UniProt Q14653, residues 1-427, S386D/S396D/S398D/S402D/T404D/S405D)
Technique: protein-binding microarray
Molecule type: double-stranded DNA, one strand shown
Medium: in vitro
Tested at: 2540 nM top
Notes: 60-bp whole probe
With: salmon DNA 0.4 mg/ml
Relative to: random background probes
Reading: higher = stronger binding
All sequences stand within: GCCTAGCAC … GTCTTGATTCGCTTGACGCTGCTG
Construct (chain): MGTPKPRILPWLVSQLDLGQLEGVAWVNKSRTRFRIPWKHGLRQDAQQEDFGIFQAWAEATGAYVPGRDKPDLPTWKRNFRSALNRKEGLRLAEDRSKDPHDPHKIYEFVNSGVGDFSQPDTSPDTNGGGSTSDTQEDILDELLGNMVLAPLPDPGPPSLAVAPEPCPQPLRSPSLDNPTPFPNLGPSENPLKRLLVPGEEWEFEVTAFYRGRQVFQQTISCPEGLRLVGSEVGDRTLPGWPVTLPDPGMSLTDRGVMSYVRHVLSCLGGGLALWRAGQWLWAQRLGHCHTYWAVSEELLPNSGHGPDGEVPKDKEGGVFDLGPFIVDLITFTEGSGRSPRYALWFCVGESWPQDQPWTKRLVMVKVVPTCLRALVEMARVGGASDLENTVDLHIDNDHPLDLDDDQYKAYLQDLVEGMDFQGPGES
Sequence | fitted relative affinity
GACTGTATCGGGTATCGGGACGTGCTA | 1.71 z-score
CTGCCTGCTCAGACTGGGGCGTGCTAG | -0.15 z-score
TTAGGTATCGGGCTTCGGTTAGTGCTA | 0.541 z-score
TTAGATTTCGGGACTGGCTTAGTGCTA | 1.09 z-score
TTAGGACTGGATTATCGGTTAGTGCTA | 0.0862 z-score
TCACTCTCTCTATTCTGTGGGTGCTAG | 1.47 z-score
TTAGACCTGAGTATCGATTAGTGCTAG | 0.0635 z-score
GCACCTCTAGACTCTAAATTCGTGCTA | -0.0163 z-score
TTAGGTTCCGGTTCCGGTTAGTGCTAG | 5.57 z-score
CTCCACTTGTGTTTGGGCATGTGCTAG | -0.268 z-score
TCAGGTATTTTTCTAAAACTGTGCTAG | 0.57 z-score
GACGGTCTCGGTATAGGGACGTGCTAG | 1.03 z-score
TCAACTTGGAATTTCCCACTGTGCTAG | 0.486 z-score
AAATATTTACCTCTCACGCAGTGCTAG | 0.442 z-score
TTAGGTATCGGGACTGGGTTAGTGCTA | 1.16 z-score
TTAGAACTGAGATTGGATTAGTGCTAG | -0.317 z-score
TTAGGTATCATTATCCTTTAGTGCTAG | 3.89 z-score
CCTTATTTAAGACCTATGCACGTGCTA | 1.36 z-score
GACGATATCAATATCGAGACGTGCTAG | 0.655 z-score

Sample 2
Target: RNA binding protein fox-1 homolog 2, RRM domain, GST-SBP tag (RBFOX2, Homo sapiens, UniProt O43251-10, residues 100-194)
Technique: RNA Bind-n-Seq
Molecule type: RNA
Medium: in vitro
Tested at: 365 nM
Notes: natural RNA segment, single round, ends assumed
Relative to: no-protein control
Reading: higher = stronger binding
All sequences stand within: GGGAGUUCUACAGUCCGACGAUC … UGGAAUUCUCGGGUGCCAA
Target sequence (chain): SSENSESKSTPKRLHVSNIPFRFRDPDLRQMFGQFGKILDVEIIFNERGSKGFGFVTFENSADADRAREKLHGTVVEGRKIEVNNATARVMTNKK
Sequence | RBNS enrichment (R)
ACGAGGGGCCUGCUGUUUGCCACCCAGCCCAACUUCCUGUUGCUGGCCCCUGCCCUCUGCCCUUUUGCCUGUCCUCAGGCCGCUGGAACAAAGGAAGGACAGCUCAUUCC | 0.381
CCCAUCCCUGGAUAUAUUGCCUUUUCAGCAGCCUCGGGUUCAGUGUGCUUGGGGUCAGGAGUGCCAGGUUCCCAAGAGCAGCGUAAAACAUCCCUGUACCCCUUGACAGU | 0.488
UGCUUGUCCUUAUCCCUGCUUGGACACCUGAGCAUCAGAUCCCUGUGCCCCUGGUGCCAUCUGGCCUGGCUGGAGCCAGGAACAAGAGGUCACCCCACCCUAGAAUCCGC | 0.287
UGGGGUGUGCUGGGAGGAUUACCAAGGCCCCCUUUUUUUGUGCCCUCUUGAAUCCAAGUGUCUGUAGCUUUGGAGACUGAGGGUCUGUGAAUAAAGGCGGUGGCACUGGA | 0.725
GACCAAAGGGAUGGUAUUGAGAAGAGAGAAAGAAGAUAGUGAGAUUUAAGUUCCUGCUGCCUGGGUAGGCCCCACAAGGCCUGGUCUGGGAGUAUACGGAAACAAAAAUG | 0.644
AUUUUCUAUUCCUAACAGCUUCCCGUGGGAAAAGUAAGCUGUUGAUCUCUUUGGCAAUUGUUCUCUGCCAGAGUCUUAAGUAUGUGUCUUUGAUACUCCUUGAAAAUUAA | 1.2
AGGGUCUCUGAGCUGACUCUGUAUUAAGGGAAAUUCUGCACACCACAGGUGAGGCUUUUUUCAGAUCAGUGGCCACCUCUUUUAGUCUGAGGAAUCCCAGAAGCAACCAG | 0.358
AAAAAUAUGCAUUUCACCCCACAUGACUAGGAAUCCACAUCAGAAUGAUACAGAGUUAGCAGGUUUUUCUAAGGAAAUGCCAUUCAAAUGCCUCCUAACUUUUAUAGUUA | 3.81

Sample 3
Target: Sal-like protein 4, full length isoform A (SALL4, Homo sapiens, UniProt Q9UJQ4, residues 1-1053)
Sequence of UniProt Q9UJQ4 (whole entry, looked up): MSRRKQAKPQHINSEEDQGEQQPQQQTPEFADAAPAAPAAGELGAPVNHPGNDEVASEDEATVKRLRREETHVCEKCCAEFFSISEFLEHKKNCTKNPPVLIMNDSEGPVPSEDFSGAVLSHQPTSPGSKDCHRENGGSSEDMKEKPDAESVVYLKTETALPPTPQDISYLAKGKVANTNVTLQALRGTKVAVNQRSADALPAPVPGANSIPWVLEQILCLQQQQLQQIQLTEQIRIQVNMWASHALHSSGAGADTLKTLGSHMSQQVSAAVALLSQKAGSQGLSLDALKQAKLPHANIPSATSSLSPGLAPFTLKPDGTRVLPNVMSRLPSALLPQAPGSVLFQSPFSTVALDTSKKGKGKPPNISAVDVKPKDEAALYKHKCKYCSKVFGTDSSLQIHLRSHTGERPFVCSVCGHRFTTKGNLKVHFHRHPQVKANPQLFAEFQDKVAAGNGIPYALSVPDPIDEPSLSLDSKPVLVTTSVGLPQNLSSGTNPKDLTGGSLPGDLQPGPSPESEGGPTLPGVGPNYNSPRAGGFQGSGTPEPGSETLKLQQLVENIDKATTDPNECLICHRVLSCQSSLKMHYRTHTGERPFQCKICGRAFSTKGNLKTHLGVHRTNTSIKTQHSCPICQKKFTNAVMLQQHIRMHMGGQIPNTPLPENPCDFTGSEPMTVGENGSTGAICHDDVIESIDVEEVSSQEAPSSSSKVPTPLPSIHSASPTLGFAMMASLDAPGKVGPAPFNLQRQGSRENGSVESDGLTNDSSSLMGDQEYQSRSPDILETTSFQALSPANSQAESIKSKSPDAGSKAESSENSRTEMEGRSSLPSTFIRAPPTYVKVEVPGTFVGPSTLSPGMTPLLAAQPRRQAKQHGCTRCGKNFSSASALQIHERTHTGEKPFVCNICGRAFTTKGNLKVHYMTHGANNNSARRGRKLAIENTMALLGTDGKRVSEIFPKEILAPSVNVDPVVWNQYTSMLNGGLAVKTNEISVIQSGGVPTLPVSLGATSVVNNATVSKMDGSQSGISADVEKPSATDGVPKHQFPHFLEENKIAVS
Technique: universal PBM
Molecule type: double-stranded DNA, one strand shown
Medium: in vitro
Tested at: 600 nM
Notes: 8-mer, flanks averaged, mean of replicates
Reading: higher = stronger binding
Sequence | E-score
ACGGGGGG | -0.337
GCTTAAAA | 0.089
CACTGAAC | 0.0599
CATGCATC | -0.00458
ATACTGCC | -0.157
GTTTTCTA | 0.178
TACTGTAA | 0.205
CGCAGCAC | -0.239
ACAAGGAC | -0.126
CCCAAGGC | -0.186
AAGACCAC | -0.137
TAGTTCGA | 0.0704
AAAACAGC | -0.029
AGGTGATG | -0.161
AAGTCAAC | 0.123
ACACCCCT | -0.059

Sample 4
Target: Centromere-binding protein 1, full length, His-tagged (CBF1, Saccharomyces cerevisiae, UniProt P17106, residues 1-351)
Sequence of UniProt P17106 (whole entry, looked up): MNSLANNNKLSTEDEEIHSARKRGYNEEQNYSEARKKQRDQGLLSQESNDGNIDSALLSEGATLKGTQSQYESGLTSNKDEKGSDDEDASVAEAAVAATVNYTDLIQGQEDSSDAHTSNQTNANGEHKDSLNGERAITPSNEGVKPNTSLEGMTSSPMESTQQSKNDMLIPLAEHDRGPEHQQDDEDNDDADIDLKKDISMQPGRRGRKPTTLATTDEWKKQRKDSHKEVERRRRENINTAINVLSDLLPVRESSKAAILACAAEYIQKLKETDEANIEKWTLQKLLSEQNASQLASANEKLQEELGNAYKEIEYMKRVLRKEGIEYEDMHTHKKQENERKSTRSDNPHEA
Technique: competition protein-binding microarray
Molecule type: double-stranded DNA, one strand shown
Medium: in vitro
Tested at: 2 µM
Notes: whole 60-bp probe, lowest competitor level
With: Pho4 competitor, 0.05 µM
Reading: higher = stronger binding
All sequences stand within: … GTCTTGATTCGCTTGACGCTGCTG
Sequence | fluorescence intensity
AAAGCGGTAATTTTTCACGTGTACTCACATATCTAT | 1100 a.u.
AAATTACTAAGTTGACGCGTGGGTGACGCCGTATGA | 69.6 a.u.
CTTCCTGTGGATTTTCACGGGCCGTCCCAAGCGCAA | 63.3 a.u.
CTAACGAAGGTTTGTGACGTGGGTGACAAGCCAAGT | 63.7 a.u.
TTGCCGCAGAAGAGTCACGTGATGGGCACTCTTACT | 15100 a.u.
AAATTACCGCCTTGACTCGTGAAACTGGATAATTCG | 79.2 a.u.
CTTCTGTAAATTTTTCACGTGTGGTGAAGCGCCCCG | 585 a.u.
TGTTCAAGTGCTTTTCACGTGTAGGATTACTTAACC | 863 a.u.
CGGGGTTAAGTTTGATATGTGGGTGGCTTGCAGCAG | 55.4 a.u.
TCTACAGGAGTTCTGCATGTGCGTAATTCAAAGCCT | 92.8 a.u.
AAACCATGGGACTGTCACACTATCCTTTCCAAGCCC | 76.5 a.u.
CTAACGAAGGTTTTTCACGTGTCTTACAAGCCAAGT | 948 a.u.
AACCAGGGCAATTCATCCGTGACGGCGAATGTTTTG | 80.2 a.u.
GTCTTGTCTCATTTTCACGTGTCATTCCCCACTTCA | 838 a.u.
CTTTCCCGATCTTGTAGCGTGGGTGTAGCACATTTG | 74.3 a.u.
AATATCCTCAACCTACACGTCTTCACCATCGGCACC | 76.8 a.u.
TCGAAGAAACGAATTCACCTGATTGCAGCTGTAAAA | 120 a.u.
GTCTTGTCTCATTGTCACGTTACTTTCCCCACTTCA | 778 a.u.
TACAGAACCCAGATACACATGTAAACAACGAGCATC | 74.7 a.u.

For quick reference, copied from above (sample 3):
Sequence | E-score
GCTTAAAA | 0.089
CACTGAAC | 0.0599
CATGCATC | -0.00458
ATACTGCC | -0.157
GTTTTCTA | 0.178
TACTGTAA | 0.205
CGCAGCAC | -0.239
ACAAGGAC | -0.126
